{"data": "Experimental data gathered from unrelated publications", "note": "Every numbered part comes from another study and shows a few of its results, in no order. Substitutions count along the parent as printed."}
{"data": "Set 1", "target": "Fragile X messenger ribonucleoprotein 1, C-terminal low-complexity region (Fmr1, Mus musculus, UniProt P35922)", "technique": "RNA Bind-n-Seq", "form": "RNA", "matrix": "in vitro", "tested at": "200 nM", "notes": "whole 134-nt RNA, ends assumed", "with": "150 mM LiCl", "reference": "input library", "direction": "higher = stronger binding", "all molecules": "7-deaza-guanosine replaces G", "constant ends, left off below": "GGGAGUUCUACAGUCCGACGAUC … UGGAAUUCUCGGGUGUCAAGG"}
{"Sequence": "ACCAUGCAGGUGGGCAUCUUUGGGAAGUGGGGCAAGGGGGGCAUAGGGAGGGGGGUAACACUUUGGGAACAGGUGGUCCCAGGUCGUUUC", "log2 enrichment": 0.336}
{"Sequence": "UAACUUUAGAGGAGGAUCUGAUGGAUAUGGCAGUGGACGUGGAUUUGGGGAUGGCUAUAAUGGGAAUGGAGGAGGACCUGGAGGUGGCAA", "log2 enrichment": 0.734}
{"Sequence": "UGGGAGGUGGAUUUUGUUUAUUUGUUUAGCUCAUUUCCAGGGGUGGGAAUUUUUUUUUAAUAUGUGUCAUGAAUAAAGUUGUUUUUGAAA", "log2 enrichment": 0.0159}
{"Sequence": "CAAGUCCUGUGCUACACAUCGUAUGUACCGAAUCGGGGAAAGGGGAAAGGAAAGGGAAAGUAUUAUGUUACGCCGUUCGGAUCUGCACUU", "log2 enrichment": -0.975}
{"Sequence": "GCAGGAAGUAAAAACAAAUGGAAAUGCUUCGGAUAGUGGCAGGGGUGGGGGUUGCUAAGGAAAGGGUGGGAAAAGAGUGGGUAAAGAGUU", "log2 enrichment": 1.53}
{"Sequence": "CAAGUCCUGUGCUACACAUCGUAUGUACCGAAUCGGGAAAGGGAGGGAAAAAGGGAAAGUAUUAUGUUACGCCGUUCGGAUCUGCACUUC", "log2 enrichment": -1.09}
{"Sequence": "UCAAGUCCUGUGCUACACAUCGUAUGUACCGAAUCGGAAAGGAGGUUUUUUUGGAAAGUAUUAUGUUACGCCGUUCGGAUCUGCACUUCC", "log2 enrichment": -0.898}
{"Sequence": "CUCAAGUCCUGUGCUACACAUCGUAUGUACCGAAUCGGAGGAAAAAGGAAAGGAAAGUAUUAUGUUACGCCGUUCGGAUCUGCACUUCCA", "log2 enrichment": -0.679}
{"Sequence": "CUGUGCUACACAUCGUAUGUACCGAAUCGGGGUUUUUUUGGGGUUUUUUUGGGGUUUGGGGAAAGUAUUAUGUUACGCCGUUCGGAUCUG", "log2 enrichment": 1.34}
{"Sequence": "AAGUCCUGUGCUACACAUCGUAUGUACCGAAUCGGGGUUUGGGUUUGGGUUUGGGGAAAGUAUUAUGUUACGCCGUUCGGAUCUGCACUU", "log2 enrichment": -1.13}
{"data": "Set 2", "Substance": "PhoQ, residues 284 288 289 292 302 303 SLGVVW", "technique": "Sort-seq", "refers to": "YFP reporter", "matrix": "E. coli", "notes": "PhoQ-PhoP variant library", "with": "10 µM Mg2+", "reference": "high Mg2+ state", "direction": "higher = stronger signaling"}
{"target": "PhoP, residues 12 14 15 18 19 TQCLL (Escherichia coli, UniProt P23836)", "fold induction": 6.06}
{"target": "PhoP, residues 12 14 15 18 19 VHTVL (Escherichia coli, UniProt P23836)", "fold induction": 19}
{"target": "PhoP, residues 12 14 15 18 19 ICWRQ (Escherichia coli, UniProt P23836)", "fold induction": 25.8}
{"data": "Set 3", "target": "CCNF, cyclin fold, Cln2 fusion (human)", "technique": "yeast growth competition, sequencing", "matrix": "yeast", "notes": "strong parent motif", "reference": "not given", "direction": "higher = stronger binding", "parent": "SAMHD1 docking peptide (human); ASKSRVQLFKDDP; partner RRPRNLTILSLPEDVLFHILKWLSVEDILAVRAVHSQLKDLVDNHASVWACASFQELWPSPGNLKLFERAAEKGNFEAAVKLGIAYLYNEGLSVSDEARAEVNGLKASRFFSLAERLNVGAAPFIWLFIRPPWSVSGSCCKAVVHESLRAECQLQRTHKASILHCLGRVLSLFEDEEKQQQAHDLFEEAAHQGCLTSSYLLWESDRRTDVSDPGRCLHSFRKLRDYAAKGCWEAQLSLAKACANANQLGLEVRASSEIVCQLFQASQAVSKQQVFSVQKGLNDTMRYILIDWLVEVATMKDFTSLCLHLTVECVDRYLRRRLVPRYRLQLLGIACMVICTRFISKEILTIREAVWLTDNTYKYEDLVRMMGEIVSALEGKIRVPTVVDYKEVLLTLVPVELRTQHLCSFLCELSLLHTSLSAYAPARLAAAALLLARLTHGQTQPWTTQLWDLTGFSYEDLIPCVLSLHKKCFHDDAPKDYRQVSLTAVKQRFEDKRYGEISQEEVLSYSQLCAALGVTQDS"}
{"Variant": "ASKSVVQLFKDDP [R5V]", "normalised enrichment score": 0.666}
{"Variant": "ASKSRNQLFKDDP [V6N]", "normalised enrichment score": 0.144}
{"Variant": "ASKSRVDLFKDDP [Q7D]", "normalised enrichment score": -0.369}
{"Variant": "ASKSRVQLHKDDP [F9H]", "normalised enrichment score": 0.363}
{"Variant": "ASKSRVQLVKDDP [F9V]", "normalised enrichment score": -0.074}
{"Variant": "ASKSRVQLFSDDP [K10S]", "normalised enrichment score": 0.799}
{"Variant": "ARKSRVQLFKDDP [S2R]", "normalised enrichment score": 1.12}
{"Variant": "ASKSRVQCFKDDP [L8C]", "normalised enrichment score": -0.443}
{"Variant": "ASKWRVQLFKDDP [S4W]", "normalised enrichment score": 2.29}
{"Variant": "ASVSRVQLFKDDP [K3V]", "normalised enrichment score": 1.13}
{"data": "Set 4", "target": "Phosphate system positive regulatory protein PHO4, full length, GST-tagged (PHO4, Saccharomyces cerevisiae, UniProt P07270, residues 1-312)", "technique": "competition protein-binding microarray", "form": "double-stranded DNA, one strand shown", "matrix": "in vitro", "tested at": "2 µM", "notes": "whole 60-bp probe, lowest competitor level", "with": "Cbf1 competitor, 0.05 µM", "direction": "higher = stronger binding", "constant ends, left off below": "… GTCTTGATTCGCTTGACGCTGCTG", "Target sequence (chain)": "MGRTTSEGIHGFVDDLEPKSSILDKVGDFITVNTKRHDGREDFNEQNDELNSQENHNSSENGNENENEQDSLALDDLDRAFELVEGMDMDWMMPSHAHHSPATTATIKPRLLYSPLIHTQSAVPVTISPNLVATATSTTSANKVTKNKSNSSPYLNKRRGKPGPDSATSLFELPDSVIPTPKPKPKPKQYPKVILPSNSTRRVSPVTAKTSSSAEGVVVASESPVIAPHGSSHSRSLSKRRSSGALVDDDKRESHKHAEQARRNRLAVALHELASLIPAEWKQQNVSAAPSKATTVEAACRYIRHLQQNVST"}
{"Sequence": "CCTTTTGGTCTTCAACACGTTCAGCCTTGATTTCCT", "fluorescence intensity [a.u.]": 10800}
{"Sequence": "AGAATGGGCGCTTGTCGCGTGCCAGATCGGGGTTCA", "fluorescence intensity [a.u.]": 8200}
{"Sequence": "GTCTTGTCTCATTGGTCTGTGGGTGTCCCCACTTCA", "fluorescence intensity [a.u.]": 4230}
{"Sequence": "TTCGGGTATCTTGTTTATGTGACGCTCTGACCCAGA", "fluorescence intensity [a.u.]": 3040}
{"Sequence": "AAAATATTCATTTTGCACGTTTCAATGCTTGACAGA", "fluorescence intensity [a.u.]": 13200}
{"Sequence": "CTTCTGTAAATTTGTCACGGCACTTGACGCGCCCCG", "fluorescence intensity [a.u.]": 4010}
{"Sequence": "TTATCTCAGTGGGTTTACGTGGGTATAGATTACGCT", "fluorescence intensity [a.u.]": 5200}
{"Sequence": "TGCAAATATCGAAAGCACGTTTTTACTCAGCCCGTC", "fluorescence intensity [a.u.]": 15500}
{"Sequence": "TTATACGTATTACATCATGTGCTCCAGCCTTGTCAG", "fluorescence intensity [a.u.]": 9120}
